# Published values gathered from unrelated publications.
# Each numbered part is a random draw from the data of one study; scales do not carry over between parts. “And” joins repeats or separate records; there may be more than shown.
# UniProt Q6XUX3, sequence (whole entry, looked up): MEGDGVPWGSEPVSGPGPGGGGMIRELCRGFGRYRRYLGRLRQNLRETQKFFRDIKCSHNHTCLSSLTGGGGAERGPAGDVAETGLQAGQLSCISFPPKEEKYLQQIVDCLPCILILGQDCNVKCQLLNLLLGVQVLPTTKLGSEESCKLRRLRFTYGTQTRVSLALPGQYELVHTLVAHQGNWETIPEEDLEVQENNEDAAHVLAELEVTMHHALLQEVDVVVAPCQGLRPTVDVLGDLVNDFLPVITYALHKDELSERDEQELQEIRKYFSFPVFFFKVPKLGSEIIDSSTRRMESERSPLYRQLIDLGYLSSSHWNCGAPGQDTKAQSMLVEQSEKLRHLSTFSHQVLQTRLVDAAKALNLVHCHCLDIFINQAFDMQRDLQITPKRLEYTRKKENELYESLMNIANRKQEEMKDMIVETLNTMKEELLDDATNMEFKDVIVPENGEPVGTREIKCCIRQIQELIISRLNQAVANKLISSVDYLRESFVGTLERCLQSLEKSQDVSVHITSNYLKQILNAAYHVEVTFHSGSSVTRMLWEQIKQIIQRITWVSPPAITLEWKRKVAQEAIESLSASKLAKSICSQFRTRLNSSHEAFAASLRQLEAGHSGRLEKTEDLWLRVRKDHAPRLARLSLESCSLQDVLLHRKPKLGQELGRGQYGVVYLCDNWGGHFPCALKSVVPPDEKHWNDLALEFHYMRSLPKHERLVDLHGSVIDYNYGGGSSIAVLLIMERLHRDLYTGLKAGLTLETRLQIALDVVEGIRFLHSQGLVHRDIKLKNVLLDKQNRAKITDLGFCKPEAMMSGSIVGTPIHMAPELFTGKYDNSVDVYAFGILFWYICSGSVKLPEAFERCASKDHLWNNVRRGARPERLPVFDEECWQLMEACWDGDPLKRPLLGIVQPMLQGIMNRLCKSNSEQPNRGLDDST
# UniProt Q9UM73, sequence (whole entry, unmodified, looked up): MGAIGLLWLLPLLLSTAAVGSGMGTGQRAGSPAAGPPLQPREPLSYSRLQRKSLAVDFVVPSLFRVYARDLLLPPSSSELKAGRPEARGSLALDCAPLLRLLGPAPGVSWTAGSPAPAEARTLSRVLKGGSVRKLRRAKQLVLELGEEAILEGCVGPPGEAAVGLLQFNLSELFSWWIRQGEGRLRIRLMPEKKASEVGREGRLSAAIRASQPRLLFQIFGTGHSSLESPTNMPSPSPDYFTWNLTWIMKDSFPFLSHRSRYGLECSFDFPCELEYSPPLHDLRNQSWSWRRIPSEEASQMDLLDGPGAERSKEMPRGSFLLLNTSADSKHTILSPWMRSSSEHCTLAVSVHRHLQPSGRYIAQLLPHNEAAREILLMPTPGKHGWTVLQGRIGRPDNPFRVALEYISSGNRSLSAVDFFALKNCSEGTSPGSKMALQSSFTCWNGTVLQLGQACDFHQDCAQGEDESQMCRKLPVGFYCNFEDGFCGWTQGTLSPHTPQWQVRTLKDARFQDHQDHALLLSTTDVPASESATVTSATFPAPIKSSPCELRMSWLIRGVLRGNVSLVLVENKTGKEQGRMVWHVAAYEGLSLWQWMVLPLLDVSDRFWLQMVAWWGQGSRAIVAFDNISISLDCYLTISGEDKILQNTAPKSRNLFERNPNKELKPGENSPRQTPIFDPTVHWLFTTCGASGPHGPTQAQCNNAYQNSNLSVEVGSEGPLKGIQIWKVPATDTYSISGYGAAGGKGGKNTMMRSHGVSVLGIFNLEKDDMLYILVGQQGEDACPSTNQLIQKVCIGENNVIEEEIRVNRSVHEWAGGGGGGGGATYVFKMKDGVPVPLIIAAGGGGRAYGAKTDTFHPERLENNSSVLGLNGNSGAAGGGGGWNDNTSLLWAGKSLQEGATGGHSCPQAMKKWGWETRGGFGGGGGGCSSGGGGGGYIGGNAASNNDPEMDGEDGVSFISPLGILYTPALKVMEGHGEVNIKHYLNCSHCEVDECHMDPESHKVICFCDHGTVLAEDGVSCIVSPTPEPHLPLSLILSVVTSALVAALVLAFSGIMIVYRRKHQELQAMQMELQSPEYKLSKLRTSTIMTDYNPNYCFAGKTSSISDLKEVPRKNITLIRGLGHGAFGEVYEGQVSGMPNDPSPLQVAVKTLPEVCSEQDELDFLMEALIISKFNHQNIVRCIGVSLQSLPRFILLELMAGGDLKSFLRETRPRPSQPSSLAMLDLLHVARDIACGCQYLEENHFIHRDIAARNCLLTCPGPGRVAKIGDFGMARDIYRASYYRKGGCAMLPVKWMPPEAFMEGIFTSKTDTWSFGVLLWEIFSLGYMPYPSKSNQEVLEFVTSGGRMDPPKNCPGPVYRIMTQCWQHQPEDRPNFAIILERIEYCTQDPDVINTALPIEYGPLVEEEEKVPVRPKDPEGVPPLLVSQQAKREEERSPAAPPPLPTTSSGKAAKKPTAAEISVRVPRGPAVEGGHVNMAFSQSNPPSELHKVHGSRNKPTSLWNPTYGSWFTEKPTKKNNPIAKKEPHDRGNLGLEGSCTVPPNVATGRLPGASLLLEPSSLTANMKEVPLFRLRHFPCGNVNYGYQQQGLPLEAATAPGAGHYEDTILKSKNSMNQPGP
# UniProt P32298, sequence (whole entry, looked up): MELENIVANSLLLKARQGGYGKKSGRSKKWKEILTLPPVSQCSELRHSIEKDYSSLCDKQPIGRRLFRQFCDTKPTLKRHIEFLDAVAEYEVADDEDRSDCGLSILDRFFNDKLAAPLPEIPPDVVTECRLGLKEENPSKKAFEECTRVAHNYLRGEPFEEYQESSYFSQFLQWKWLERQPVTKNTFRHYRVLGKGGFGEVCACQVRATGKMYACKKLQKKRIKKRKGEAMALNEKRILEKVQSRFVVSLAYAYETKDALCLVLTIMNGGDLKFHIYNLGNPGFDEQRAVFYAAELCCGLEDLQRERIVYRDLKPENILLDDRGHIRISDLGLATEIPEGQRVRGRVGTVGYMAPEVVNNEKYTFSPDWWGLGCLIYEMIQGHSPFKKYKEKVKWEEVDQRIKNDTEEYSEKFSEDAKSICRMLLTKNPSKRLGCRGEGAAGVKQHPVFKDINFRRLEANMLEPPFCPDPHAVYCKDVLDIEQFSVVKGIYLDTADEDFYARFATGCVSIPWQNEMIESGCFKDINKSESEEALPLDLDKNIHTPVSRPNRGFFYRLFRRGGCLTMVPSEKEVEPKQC
# UniProt Q8RYC6, sequence (whole entry, looked up): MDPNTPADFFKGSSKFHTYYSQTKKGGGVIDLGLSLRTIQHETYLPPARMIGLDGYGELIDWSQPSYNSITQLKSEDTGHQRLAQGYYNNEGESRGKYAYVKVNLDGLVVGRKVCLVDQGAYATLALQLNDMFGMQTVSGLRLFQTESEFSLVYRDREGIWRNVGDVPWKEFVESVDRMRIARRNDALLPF
# UniProt Q9ZTX8, sequence (whole entry, looked up): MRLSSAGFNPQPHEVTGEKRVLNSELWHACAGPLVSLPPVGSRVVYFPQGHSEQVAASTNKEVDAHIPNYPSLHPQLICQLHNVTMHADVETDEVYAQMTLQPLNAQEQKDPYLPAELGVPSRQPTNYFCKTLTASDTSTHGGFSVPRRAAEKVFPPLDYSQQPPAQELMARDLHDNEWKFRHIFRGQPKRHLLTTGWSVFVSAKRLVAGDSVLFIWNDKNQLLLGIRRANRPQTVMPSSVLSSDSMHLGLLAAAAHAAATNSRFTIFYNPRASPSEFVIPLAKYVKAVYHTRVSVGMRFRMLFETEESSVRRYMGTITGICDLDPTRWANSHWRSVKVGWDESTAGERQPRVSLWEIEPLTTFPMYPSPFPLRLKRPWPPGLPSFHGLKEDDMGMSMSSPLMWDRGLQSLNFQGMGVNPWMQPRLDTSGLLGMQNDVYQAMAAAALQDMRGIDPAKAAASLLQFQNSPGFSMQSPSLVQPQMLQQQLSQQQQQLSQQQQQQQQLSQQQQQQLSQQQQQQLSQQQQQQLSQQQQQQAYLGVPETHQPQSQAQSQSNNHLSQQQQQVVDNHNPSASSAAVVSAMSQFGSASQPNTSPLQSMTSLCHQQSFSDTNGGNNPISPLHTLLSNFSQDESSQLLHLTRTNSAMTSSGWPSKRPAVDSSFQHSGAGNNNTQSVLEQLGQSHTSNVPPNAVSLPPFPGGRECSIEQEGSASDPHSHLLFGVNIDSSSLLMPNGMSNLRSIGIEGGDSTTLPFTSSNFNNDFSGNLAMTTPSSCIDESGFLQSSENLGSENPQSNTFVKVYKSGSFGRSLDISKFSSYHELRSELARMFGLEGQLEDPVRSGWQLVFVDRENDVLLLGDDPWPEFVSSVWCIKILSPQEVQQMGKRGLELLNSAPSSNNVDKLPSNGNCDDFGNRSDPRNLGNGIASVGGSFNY
# UniProt Q9ZTX9, sequence (whole entry, looked up): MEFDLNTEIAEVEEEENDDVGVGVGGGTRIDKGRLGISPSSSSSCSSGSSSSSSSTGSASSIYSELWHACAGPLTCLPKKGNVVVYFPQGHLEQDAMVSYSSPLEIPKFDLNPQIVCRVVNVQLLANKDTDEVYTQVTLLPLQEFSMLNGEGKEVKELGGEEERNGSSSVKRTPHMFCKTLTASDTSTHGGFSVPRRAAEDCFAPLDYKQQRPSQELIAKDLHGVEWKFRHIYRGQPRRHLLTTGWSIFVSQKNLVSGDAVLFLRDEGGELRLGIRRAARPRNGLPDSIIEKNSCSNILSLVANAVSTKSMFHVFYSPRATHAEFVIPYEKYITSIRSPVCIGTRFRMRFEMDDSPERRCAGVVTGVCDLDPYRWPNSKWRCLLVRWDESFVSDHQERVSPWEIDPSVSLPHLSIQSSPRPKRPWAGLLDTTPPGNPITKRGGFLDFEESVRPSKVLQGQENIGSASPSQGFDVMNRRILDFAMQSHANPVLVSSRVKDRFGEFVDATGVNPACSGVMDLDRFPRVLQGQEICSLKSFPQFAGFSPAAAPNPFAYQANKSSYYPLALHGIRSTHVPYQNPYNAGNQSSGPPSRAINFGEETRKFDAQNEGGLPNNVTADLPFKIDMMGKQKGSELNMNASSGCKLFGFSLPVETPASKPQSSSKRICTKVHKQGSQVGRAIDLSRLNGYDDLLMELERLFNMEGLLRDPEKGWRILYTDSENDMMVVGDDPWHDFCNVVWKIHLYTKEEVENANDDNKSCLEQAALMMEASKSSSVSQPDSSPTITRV

# Series 1 — method: protein binding microarray; molecule type: double-stranded DNA, one strand shown; sample: in vitro; tested at: not given; baseline: not given; reading: higher = stronger binding
# Target: Histone acetyltransferase KAT6A, both winged helices, GST fusion (KAT6A, Homo sapiens, UniProt Q92794, residues 1-181)
# Notes: 8-mer, flanks averaged, mean of 2 arrays, mostly near background
# Residues (chain): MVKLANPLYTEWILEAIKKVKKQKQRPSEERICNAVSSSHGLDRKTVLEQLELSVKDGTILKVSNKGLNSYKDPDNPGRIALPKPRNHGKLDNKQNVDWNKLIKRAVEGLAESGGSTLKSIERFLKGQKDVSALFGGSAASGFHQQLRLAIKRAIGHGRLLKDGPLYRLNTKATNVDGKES
Sequence,E-score
AGTAGAGA,-0.185
CCACAGAG,-0.273
CTTACAAA,-0.0909
ATGCGGCG,0.32
GGAGAAGA,-0.0953
GATAGCTA,-0.0541
TGAATTCA,-0.12
ACGACGAG,-0.26

# Series 2 — Sequence: B1 (IAA28); method: two-hybrid; reading: higher = firmer interaction
# B1: IAA28 (Arabidopsis thaliana, UniProt Q9XFM0); chain MEEEKRLELRLAPPCHQFTSNNNINGSKQKSSTKETSFLSNNRVEVAPVVGWPPVRSSRRNLTAQLKEEMKKKESDEEKELYVKINMEGVPIGRKVNLSAYNNYQQLSHAVDQLFSKKDSWDLNRQYTLVYEDTEGDKVLVGDVPWEMFVSTVKRLHVLKTSHAFSLSPRKHGKE
partner,how to read,positive tests
"ARF5 788-902 (Arabidopsis thaliana, UniProt P93024)",baseline: out of 4 tests,4
"ARF7 1030-1164 (Arabidopsis thaliana, UniProt P93022)",baseline: out of 4 tests,4
"ARF4 660-788 (Arabidopsis thaliana, UniProt Q9ZTX9)",baseline: out of 4 tests,0
"IAA32 (Arabidopsis thaliana, UniProt Q8RYC6)",baseline: out of 2 tests,0
"ARF6 790-935 (Arabidopsis thaliana, UniProt Q9ZTX8)",baseline: out of 4 tests,3

# Series 3 — method: competition with immobilised ligand; tested at: 1 µM
# Compound: COc1ccc2c(c1)O[C@H](c1ccc(OC)c(OC)c1)C[C@@H]2NC(=O)C1(c2ccc3c(c2)OC(F)(F)O3)CC1
target,test,remaining binding
"Tyrosine-protein kinase Mer (MERTK, Homo sapiens, UniProt Q12866)",cell-free assay,98%
"Focal adhesion kinase 1 (PTK2, Homo sapiens, UniProt Q05397)",cell-free assay,100%
"Tyrosine-protein kinase ABL1, non-phosphorylated (ABL1, Homo sapiens, UniProt P00519, H396P)",cell-free assay,100%
"Mitogen-activated protein kinase kinase kinase 12 (MAP3K12, Homo sapiens, UniProt Q12852)",cell-free assay,87%
"Tyrosine-protein kinase ABL1, non-phosphorylated (ABL1, Homo sapiens, UniProt P00519, F317I)",cell-free assay,100%
"Myosin-IIIb (MYO3B, Homo sapiens, UniProt Q8WXR4)",binding,39%
"Phosphatidylinositol 5-phosphate 4-kinase type-2 gamma (PIP4K2C, Homo sapiens, UniProt Q8TBX8)",cell-free assay,83%
"Misshapen-like kinase 1 (MINK1, Homo sapiens, UniProt Q8N4C8)",cell-free assay,100%
"ALK tyrosine kinase receptor (ALK, Homo sapiens, UniProt Q9UM73, L1196M)",cell-free assay,100%
"Serine/threonine-protein kinase Nek10 (NEK10, Homo sapiens, UniProt Q6ZWH5)",cell-free assay,100%
"G protein-coupled receptor kinase 4 (GRK4, Homo sapiens, UniProt P32298)",cell-free assay,100%
"Ephrin type-B receptor 2 (EPHB2, Homo sapiens, UniProt P29323)",cell-free assay,84%
"Receptor-type tyrosine-protein kinase FLT3 (FLT3, Homo sapiens, UniProt P36888, D835V/ITD)",cell-free assay,72%
"BMP-2-inducible protein kinase (BMP2K, Homo sapiens, UniProt Q9NSY1)",cell-free assay,100%
"Vascular endothelial growth factor receptor 1 (FLT1, Homo sapiens, UniProt P17948)",cell-free assay,100%
"Dual serine/threonine and tyrosine protein kinase (DSTYK, Homo sapiens, UniProt Q6XUX3)",cell-free assay,94%
"Phosphorylase b kinase gamma catalytic chain, skeletal muscle/heart isoform (PHKG1, Homo sapiens, UniProt Q16816)",cell-free assay,100%

# Single results of other studies
SMILES,target or system,test,test system,conditions,how to read,endpoint,result
Cc1ccc(S(=O)(=O)OCC(=O)Nc2ccc(C(=O)O)c(O)c2)cc1,mouse MPNST tumor cells,"high-content immunofluorescence imaging, refers to: nuclear SOX9",,"10 µM, 12 h, mean of 2 replicates","baseline: DMSO control, higher = more nuclear SOX9",nuclear SOX9 intensity,112 % of DMSO
O=C(COc1ccc(Cl)cc1)NC1CCC(NC(=O)COc2ccc(Cl)cc2)CC1 (stereo not drawn),HEK293T ATF4-firefly luciferase reporter,"integrated stress response, refers to: ATF4",,concentration not given,baseline: DMSO,reporter signal,73.4% and 71.2% and 88% and 84.3% and 69.6% and 69.8% and 61.8%
COc1cc(OC)c(C(=O)CCCN2CCCC2)c(OC)c1.Cl,Sarcocystis neurona,parasite growth,,"concentration not given, first screen",baseline: untreated,log2 fold change,-0.1
CC(C)n1cnc(-c2ccc(F)cc2)c1-c1ncc(C(=O)Nc2ccc(N3CCN(C)CC3)cc2)[nH]1,,phase 2a trial,patients with idiopathic pulmonary fibrosis,"60 mg once daily, endocrine disorders SOC, grade 2",,patients with TEAE,0%
CC(N/C(=N\C#N)Nc1ccncc1)C(C)(C)C.O (stereo not drawn),Sarcocystis neurona,parasite growth,,"concentration not given, first screen",baseline: untreated,log2 fold change,0.0333
CNC(=O)COc1cccc2c1[C@@H]1O[C@H](C)CC[C@H]1[C@](C)(CCCC(C)C)O2,,,"human, microsomes or S9","2 µM, 0.5 h",,remaining compound,> 100%

# Excerpt of the above (series 1):
Sequence,E-score
CTTACAAA,-0.0909
ATGCGGCG,0.32
